Published values collected from several papers.
Compare with care: the assays were run in different laboratories. ± marks the error that the study gave.
Acetyl-CoA synthetase: Acetyl-CoA synthetase (Cryptococcus neoformans, UniProt J9VFT1)
PIK3CA: Phosphatidylinositol 4,5-bisphosphate 3-kinase catalytic subunit alpha isoform (PIK3CA, Homo sapiens, UniProt P42336)
Chain of UniProt P42336 (whole entry, looked up): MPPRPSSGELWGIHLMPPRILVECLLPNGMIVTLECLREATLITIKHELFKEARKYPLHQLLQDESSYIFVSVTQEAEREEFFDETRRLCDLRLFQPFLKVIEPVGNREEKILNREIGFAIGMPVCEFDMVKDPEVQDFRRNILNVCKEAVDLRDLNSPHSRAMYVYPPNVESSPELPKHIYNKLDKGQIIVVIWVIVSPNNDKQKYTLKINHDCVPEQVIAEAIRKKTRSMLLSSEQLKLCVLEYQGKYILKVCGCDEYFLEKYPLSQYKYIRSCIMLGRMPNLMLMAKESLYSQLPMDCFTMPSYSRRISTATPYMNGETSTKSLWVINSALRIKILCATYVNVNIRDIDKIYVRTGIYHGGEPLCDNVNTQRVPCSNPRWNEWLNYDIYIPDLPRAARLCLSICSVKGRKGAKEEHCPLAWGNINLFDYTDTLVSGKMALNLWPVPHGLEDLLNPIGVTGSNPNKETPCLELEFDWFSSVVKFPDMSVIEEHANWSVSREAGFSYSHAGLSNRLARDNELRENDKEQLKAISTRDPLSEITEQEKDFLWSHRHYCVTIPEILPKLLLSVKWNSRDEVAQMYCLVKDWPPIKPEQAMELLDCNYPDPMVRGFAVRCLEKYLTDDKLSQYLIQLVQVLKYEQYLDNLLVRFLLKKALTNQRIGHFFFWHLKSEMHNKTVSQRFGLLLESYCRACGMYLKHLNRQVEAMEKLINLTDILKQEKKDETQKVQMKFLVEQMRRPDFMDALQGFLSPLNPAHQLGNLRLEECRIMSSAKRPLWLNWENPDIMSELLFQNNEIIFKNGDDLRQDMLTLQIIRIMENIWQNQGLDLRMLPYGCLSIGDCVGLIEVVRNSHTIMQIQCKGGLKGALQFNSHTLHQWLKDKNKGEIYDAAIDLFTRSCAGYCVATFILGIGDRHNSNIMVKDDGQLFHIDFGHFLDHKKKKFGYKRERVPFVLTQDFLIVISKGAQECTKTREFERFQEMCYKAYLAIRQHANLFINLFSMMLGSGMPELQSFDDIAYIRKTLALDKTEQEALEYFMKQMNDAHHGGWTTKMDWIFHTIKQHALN
Chain of UniProt Q8R2Y0 (whole entry, looked up): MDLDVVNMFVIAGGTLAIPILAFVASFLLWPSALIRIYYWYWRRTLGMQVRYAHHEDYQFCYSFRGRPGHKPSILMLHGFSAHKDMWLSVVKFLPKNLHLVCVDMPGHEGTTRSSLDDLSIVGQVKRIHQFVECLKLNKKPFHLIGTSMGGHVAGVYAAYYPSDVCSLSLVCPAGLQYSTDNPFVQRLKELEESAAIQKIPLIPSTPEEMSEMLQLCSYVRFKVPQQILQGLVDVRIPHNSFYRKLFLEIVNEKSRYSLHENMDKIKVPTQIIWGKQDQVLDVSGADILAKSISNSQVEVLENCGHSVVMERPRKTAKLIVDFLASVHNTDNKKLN
Chain of UniProt P28222 (whole entry, looked up): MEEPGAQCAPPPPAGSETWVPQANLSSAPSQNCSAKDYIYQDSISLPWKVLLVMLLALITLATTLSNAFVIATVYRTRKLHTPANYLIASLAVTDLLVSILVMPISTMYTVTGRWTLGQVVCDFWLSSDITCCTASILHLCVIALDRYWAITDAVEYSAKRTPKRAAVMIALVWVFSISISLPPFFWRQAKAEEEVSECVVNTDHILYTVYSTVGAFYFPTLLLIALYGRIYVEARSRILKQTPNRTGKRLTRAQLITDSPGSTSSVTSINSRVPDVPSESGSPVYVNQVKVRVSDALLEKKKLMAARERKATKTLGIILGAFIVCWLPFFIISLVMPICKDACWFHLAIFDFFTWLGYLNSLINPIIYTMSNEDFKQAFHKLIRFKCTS
Chain of UniProt Q9Y6K9 (whole entry, looked up): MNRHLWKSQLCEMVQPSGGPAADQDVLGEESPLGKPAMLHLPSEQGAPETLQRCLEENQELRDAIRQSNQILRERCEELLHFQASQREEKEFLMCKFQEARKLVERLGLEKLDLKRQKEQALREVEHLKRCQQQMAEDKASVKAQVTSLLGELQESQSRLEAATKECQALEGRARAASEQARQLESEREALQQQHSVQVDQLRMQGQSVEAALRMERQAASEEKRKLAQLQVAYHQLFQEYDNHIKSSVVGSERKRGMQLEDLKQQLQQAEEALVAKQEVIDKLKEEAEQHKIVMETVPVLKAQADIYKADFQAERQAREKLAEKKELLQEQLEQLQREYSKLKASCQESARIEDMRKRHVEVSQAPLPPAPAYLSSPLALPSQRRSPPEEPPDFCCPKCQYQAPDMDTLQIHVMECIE
Chain of UniProt O00329 (whole entry, looked up): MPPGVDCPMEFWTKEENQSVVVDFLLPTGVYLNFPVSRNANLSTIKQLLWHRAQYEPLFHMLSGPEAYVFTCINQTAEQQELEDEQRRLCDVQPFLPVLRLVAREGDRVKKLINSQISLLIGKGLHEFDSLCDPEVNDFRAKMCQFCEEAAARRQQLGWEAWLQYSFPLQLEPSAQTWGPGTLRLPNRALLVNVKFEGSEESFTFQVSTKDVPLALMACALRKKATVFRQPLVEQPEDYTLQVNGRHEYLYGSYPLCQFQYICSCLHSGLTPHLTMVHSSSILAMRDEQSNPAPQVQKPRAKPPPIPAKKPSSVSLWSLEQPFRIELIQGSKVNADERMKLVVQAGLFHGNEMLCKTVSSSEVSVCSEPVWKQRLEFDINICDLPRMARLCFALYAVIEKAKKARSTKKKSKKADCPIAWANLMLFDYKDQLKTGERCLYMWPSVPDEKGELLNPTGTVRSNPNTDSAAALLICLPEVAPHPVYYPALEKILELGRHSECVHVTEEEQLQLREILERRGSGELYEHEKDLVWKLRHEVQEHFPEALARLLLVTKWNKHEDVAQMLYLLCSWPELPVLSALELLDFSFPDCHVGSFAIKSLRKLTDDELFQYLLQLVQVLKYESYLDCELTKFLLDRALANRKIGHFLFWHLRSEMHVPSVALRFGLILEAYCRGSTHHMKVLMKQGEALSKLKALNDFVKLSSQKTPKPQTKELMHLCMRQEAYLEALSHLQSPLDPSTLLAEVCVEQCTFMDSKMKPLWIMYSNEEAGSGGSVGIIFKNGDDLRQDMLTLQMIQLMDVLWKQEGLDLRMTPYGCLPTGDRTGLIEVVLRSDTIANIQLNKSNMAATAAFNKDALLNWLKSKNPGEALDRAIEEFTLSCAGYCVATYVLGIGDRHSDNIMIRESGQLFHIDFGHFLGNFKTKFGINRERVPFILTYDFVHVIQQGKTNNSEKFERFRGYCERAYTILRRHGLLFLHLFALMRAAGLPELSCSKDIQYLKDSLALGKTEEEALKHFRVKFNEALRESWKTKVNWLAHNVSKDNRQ
Chain of UniProt P21462 (whole entry, looked up): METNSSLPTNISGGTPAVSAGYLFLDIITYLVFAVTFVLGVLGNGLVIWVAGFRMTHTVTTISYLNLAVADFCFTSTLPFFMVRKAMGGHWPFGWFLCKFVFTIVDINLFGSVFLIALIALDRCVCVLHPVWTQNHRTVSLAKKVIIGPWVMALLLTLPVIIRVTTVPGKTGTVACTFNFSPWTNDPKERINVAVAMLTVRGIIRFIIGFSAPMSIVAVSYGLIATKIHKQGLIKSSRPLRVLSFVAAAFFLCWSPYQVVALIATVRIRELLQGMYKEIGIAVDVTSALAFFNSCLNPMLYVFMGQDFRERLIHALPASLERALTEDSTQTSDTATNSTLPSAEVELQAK

Compound | target | test | test system | setting | IC50 [nM]
CC(=O)C1=C(C)NC(=O)NC1c1ccc(C)cc1 (stereo not shown) | AMY2 (Sus scrofa, UniProt P00690) | enzyme activity, inhibitor |  |  | 145000
COC(=O)C[C@H](NC(=O)[C@H](C)NC(=O)[C@@H](NC(=O)OCc1ccccc1)C(C)C)C(=O)CF | Caspase-3 (CASP3, Homo sapiens, UniProt P42574) | enzyme activity, inhibitor, fluorescence |  |  | 30
CN(Cc1cc(C2CC2)on1)C(=O)c1cccc(-c2ccncc2)c1 | Acetyl-CoA synthetase |  |  |  | > 50000
CCCC[C@H](NC(C)=O)C(=O)N[C@@H](CO)C(=O)N[C@H](C(=O)N1CCC[C@H]1C(=O)N[C@]1(C)CCCCCCC=CCCC[C@@](C)(C(=O)N[C@@H](Cc2ccccc2)C(=O)N[C@@H](CCCCN)C(=O)N[C@@H](CCCNC(=N)N)C(=O)N[C@@H](CC(C)C)C(=O)N[C@@H](CCC(N)=O)C(N)=O)NC(=O)[C@H](CCCNC(=N)N)NC(=O)[C@H](CCCC)NC(=O)[C@H](CC(C)C)NC(=O)[C@H](CCCNC(=N)N)NC(=O)[C@H](CCCNC(=N)N)NC(=O)[C@H](CCCNC(=N)N)NC1=O)[C@@H](C)O | UBA6 (Homo sapiens, UniProt A0AVT1) | enzyme activity, inhibitor |  |  | 420
C[C@@H]1NC(=O)[C@H](Cc2c[nH]c3ccccc23)NC(=O)CNC(=O)c2cc3cc(c2)C(=O)NC[C@@H](C(=O)NCCC(=O)NCCC(=O)N[C@@H](CCCCN)C(N)=O)NC(=O)[C@H](CCCNC(=N)N)NC(=O)[C@@H](CCCNC(=N)N)NC(=O)[C@H](CCCNC(=N)N)NC(=O)[C@H](Cc2ccc4ccccc4c2)NC(=O)[C@H](Cc2ccccc2)NC(=O)[C@H](CNC3=O)NC(=O)[C@H](C)NC(=O)[C@H](Cc2ccc(O)cc2)NC1=O | NF-kappa-B essential modulator, with IKK-beta (IKBKG, Homo sapiens, UniProt Q9Y6K9) | inhibitor, HTRF |  |  | 1700 ± 100
O=C(Nc1ccccc1)N[C@H]1C[C@@H](C(=O)O)Nc2cc(Cl)cc(Cl)c21 (stereo in doubt) | Glutamate NMDA receptor; Grin1/Grin2a (Grin1/Grin2a, Rattus norvegicus, UniProt P35439+Q00959) | ion current, two-electrode voltage clamp |  | oocytes | 250
O=C1C2=C(Nc3ccccc3SC2c2ccsc2)c2ccccc21 (racemic) | MT-CYB, bc1 complex (Plasmodium falciparum, UniProt Q02768) | enzyme activity, inhibitor | purified mitochondrial fractions |  | 4 ± 1.4
COc1cc(O)ccc1CC[C@H](c1ccc(O)cc1)c1cc2c(c(C)c1O)O[C@@H](c1ccc(O)cc1)CC2 | ALOX5 (Homo sapiens, UniProt P09917) | 5-LO product formation | human PMNL | added: A23187 | 11300
N#Cc1ccc(N(Cc2ccc(OS(N)(=O)=O)c(F)c2F)n2cnnc2)cc1 | Steryl-sulfatase (STS, Homo sapiens, UniProt P08842) | enzyme activity, inhibitor | JEG-3 intact monolayers |  | 10 to 100
O=C1NC(=O)/C(=C/c2ccc3c(c2)OCO3)N1 | PIK3CA | enzyme activity, inhibitor, radiometric |  |  | 50000
Cc1ccc(CN2C(=O)/C(=N\c3ccc(Cl)cc3Br)c3ccccc32)cc1 | PIK3CD (Homo sapiens, UniProt O00329) | enzyme activity, inhibitor, ADP detection |  |  | 5.91
COc1cccc(Cc2cc(CCC(=O)NC3=C(C)C4=C(C)c5c(C)cc(C)n5[B-](F)(F)[N+]4=C3C)nn(CC(=O)Nc3ccc(Br)cc3)c2=O)c1 | FPR1 (Homo sapiens, UniProt P21462) | calcium signal, antagonist |  |  | 2600
CN(Cc1cc(C2CC2)on1)S(=O)(=O)c1cccc(-c2ccc(F)cc2)c1 | Acetyl-CoA synthetase |  |  |  | > 50000
CCNC(=O)[C@H]1O[C@@H](n2cnc3c(NCCOCCOCCNC(=O)CCCCCNC(=O)COc4ccc(/C=C/C5=[N+]6C(=Cc7ccc(-c8cccs8)n7[B-]6(F)F)C=C5)cc4)ncnc32)[C@H](O)[C@@H]1O | ADORA1 (Homo sapiens, UniProt P30542) | ligand displacement in cells, radioligand |  |  | 589
N/C(=N\O)c1ccc2c(c1)Oc1ccccc1N2Cc1cccc(C(=O)NO)c1 | HDAC4 (Homo sapiens, UniProt P56524) | enzyme activity, inhibitor |  |  | > 40000
O=c1c2c(O)cc(O)cc2oc2oc3cc(O)ccc3c12 | alpha-glucosidase | inhibitor |  |  | 53400 ± 1200
Cc1nc(NC(=O)N2CCCC2)sc1-c1csc(C(C)(C)C)n1 | PIK3CA | enzyme activity, inhibitor, TR-FRET |  |  | 1560
CN(c1ccccc1C(=O)N1CCc2cc(S(=O)(=O)N3CCN(c4cc(C(F)(F)F)cc(Cl)n4)CC3)ccc21)S(C)(=O)=O | UDP-2,3-diacylglucosamine hydrolase (UniProt P43341) | enzyme activity, inhibitor, absorbance |  |  | 0.058
CC(=O)NC1CC=C(c2cc3c(Nc4cc5ncsc5cc4F)ncnc3s2)CC1 (racemic) | RIPK2 (Homo sapiens, UniProt O43353) | enzyme activity, inhibitor |  |  | 14
COc1ccc2c(c1)c1c(n2CO)CN2CCc3cc(OC)c(OCc4ccccc4)cc3C2C1 (stereo not shown) | HTR1B (Homo sapiens, UniProt P28222) | ligand displacement in cells, radioligand |  |  | 40800
O=C(CS(=O)(=O)Cc1ccco1)C12CC3CC(CC(C3)C1)C2 | Hsd11b1 (Mus musculus, UniProt P50172) | enzyme activity in cells, inhibitor |  |  | 176
C[C@@H](O)[C@H](NC(=O)CP(=O)(O)OC[C@H]1O[C@@H](n2cnc3c(N)ncnc32)[C@H](O)[C@@H]1O)C(=O)O | Threonylcarbamoyl-AMP synthase (tsaC, Escherichia coli, UniProt P45748) | TC-AMP formation, inhibitor |  | added: ATP 1.2 mM, L-threonine 1.8 mM | > 180000
COc1ccc(/C=C2\SC(=S)NC2=O)cc1O | PIK3CA | enzyme activity, inhibitor, radiometric |  |  | 2700
COc1ccc(-c2ccc(-c3cn(C(=O)N4CCCCC4c4ccccc4)nn3)cc2)cc1 (stereo not shown) | Abhd6 (Mus musculus, UniProt Q8R2Y0) | enzyme activity, inhibitor |  |  | 10
O=c1c2ccccc2on1-c1ccccc1 | HDAC7 (Homo sapiens, UniProt Q8WUI4) | enzyme activity, inhibitor |  |  | > 10000
C=CC(=O)N1CCc2ccc(-n3c(=O)ccc4cnc5ccc(-c6cnn(C)c6)cc5c43)cc21 | FYN (Homo sapiens, UniProt P06241) | enzyme activity, inhibitor |  |  | > 10000
O=C1Nc2cc(Cl)ccc2/C1=C\c1cccc(Cl)c1Cl | alpha-glucosidase | inhibitor |  | added: glucopyranoside substrate | 35300
C=CS(=O)(=O)Nc1ccc2nc(NCCCCCN(C)C)nc(NCCCCCCN(C)C)c2c1 | SETDB1 (Homo sapiens, UniProt Q15047) | enzyme activity, inhibitor |  |  | 39900

A few entries again:
Compound | target | test | test system | setting | IC50 [nM]
O=C(Nc1ccccc1)N[C@H]1C[C@@H](C(=O)O)Nc2cc(Cl)cc(Cl)c21 (stereo in doubt) | Glutamate NMDA receptor; Grin1/Grin2a (Grin1/Grin2a, Rattus norvegicus, UniProt P35439+Q00959) | ion current, two-electrode voltage clamp |  | oocytes | 250
O=C1Nc2cc(Cl)ccc2/C1=C\c1cccc(Cl)c1Cl | alpha-glucosidase | inhibitor |  | added: glucopyranoside substrate | 35300
C[C@@H](O)[C@H](NC(=O)CP(=O)(O)OC[C@H]1O[C@@H](n2cnc3c(N)ncnc32)[C@H](O)[C@@H]1O)C(=O)O | Threonylcarbamoyl-AMP synthase (tsaC, Escherichia coli, UniProt P45748) | TC-AMP formation, inhibitor |  | added: ATP 1.2 mM, L-threonine 1.8 mM | > 180000
